{"data": "Published values gathered from unrelated publications", "note": "Protocols differ between the studies behind these lines. Numbers after ± are the reported error."}
{"SMILES": "O=C(Nc1cnccc1Cl)N1CCN(Cc2ccc3c(c2)OC(F)(F)O3)CC1", "assay": "measured: Fatigue", "system": "human healthy young men", "setting": "10 mg, multiple dose", "measurement": "adverse event incidence", "value": "0%"}
{"SMILES": "O=C(Nc1nc2cccc(-c3ccc(CN4CCS(=O)(=O)CC4)cc3)n2n1)C1CC1", "assay": "measured: constipation", "system": "human rheumatoid arthritis patients", "setting": "oral, 30 mg once daily, 4 weeks, regardless of relatedness", "measurement": "treatment-emergent adverse events", "value": "0%"}
{"SMILES": "COc1cc(Nc2ncc3c(n2)-c2ccc(Cl)cc2C(c2c(F)cccc2OC)=NC3)ccc1C(=O)O", "assay": "measured: Constipation, grade 2", "system": "cancer patients, phase 1/2", "setting": "oral, dose not given, together with: pembrolizumab", "measurement": "patients with adverse event", "value": "4%"}
{"SMILES": "CCOc1c([C@H](C)n2nc(C)c3c(N)ncnc32)cc(Cl)c(F)c1[C@@H]1CNC(=O)C1", "system": "patients, monotherapy", "setting": "oral, 10 mg once daily, cycle 1 day 1", "measurement": "AUC(0-last)", "value": "3.26 ± 1.46 µM·h"}
{"SMILES": "CCCOc1ccc(NC(=O)CN2CCN(C)CC2)cc1-c1nc(CC)c(CC)c(=O)[nH]1", "system": "healthy Chinese men", "setting": "10 mg, supine or semi-supine, together with: alcohol 0.5 g/kg", "measurement": "AUEC(0-4 h) diastolic BP", "value": "-22.8 ± 18.9 h·mmHg"}
{"SMILES": "CC(C)(C(=O)N1CCOc2c(C#N)cncc2C1)C(F)F", "assay": "measured: Polyuria", "system": "human", "setting": "oral, 40 mg, CSF pharmacokinetic cohort", "measurement": "subjects with adverse event", "value": "16.7%"}
{"SMILES": "C[C@@H](Nc1cc(F)cc(F)c1)c1cc(C(=O)N(C)C)cc2c(=O)cc(N3CCOCC3)oc12", "system": "human, plasma", "setting": "oral, 30 mg, day 1 single dose", "measurement": "t1/2 geometric mean", "value": "2.09 h"}
{"SMILES": "c1ccc(-c2nc(N3CCCC(c4ccccn4)C3)c3ccccc3n2)nc1 (centres unmarked)", "system": "Japanese Pharmacopoeia disintegration test solution 2", "setting": "pH 6.8", "measurement": "kinetic solubility", "value": "81 µg/mL"}
{"SMILES": "Nc1ncc(-c2ccncc2)nc1Nc1ccc2[nH]ccc2c1", "system": "C57BL mice, male, plasma", "setting": "subcutaneous, 10 mg/kg", "measurement": "t1/2", "value": "0.3 h"}
{"SMILES": "CCc1ccc(-c2ccc(-c3cc(F)c(F)c(F)c3)c(F)c2)cc1", "system": "rat, placenta", "setting": "1000 ng/mL in perfusate, middle dose, mixture of 21 LCMs", "measurement": "median placental accumulation", "value": "4.9 ng/g"}
{"SMILES": "COc1cc(OC)c(NC(=O)CSc2nnc(-c3ccncc3)n2-c2ccccc2)cc1Cl", "system": "aqueous buffer", "setting": "pH 7.4", "measurement": "thermodynamic solubility", "value": "< 5.36 µM"}
{"SMILES": "CO[C@@H]1[C@H](O)[C@@H](CO)O[C@H]1n1c([N+](=O)[O-])nc2c(=O)[nH]c(N)nc21", "assay": "depurination, RP-HPLC", "system": "citrate-phosphate buffer 0.5 mM", "setting": "3960 min, pH 7, 37 °C", "measurement": "nucleoside remaining fraction", "value": 0.512}
{"SMILES": "CC(C)c1nc(CN(C)C(=O)N[C@@H](CCN2CCOCC2)C(=O)N[C@H](CC[C@H](Cc2ccccc2)NC(=O)OCc2cncs2)Cc2ccccc2)cs1", "system": "human", "setting": "oral, dose not given", "measurement": "participants with Headache", "value": "0%"}
{"SMILES": "NS(=O)(=O)c1ccc(CNc2ccnc(Nc3cccc(NC(=O)N4CCCC4)c3)n2)cc1", "assay": "PAMPA", "system": "PBS", "setting": "5 h, pH 7.4", "measurement": "PAMPA permeability", "value": "not detected"}
{"SMILES": "C1=C/COCc2cc(ccc2OCCN2CCCC2)Nc2nccc(n2)-c2cccc(c2)COC/1", "system": "rat plasma", "setting": "1200 ng/mL, 4 h, room temperature", "how to read": "baseline: nominal concentration", "measurement": "stability relative error", "value": "-1.26%"}
{"SMILES": "N#CCC1CCN(c2nc(Nc3ccc(N4CCC(O)CC4)cc3)c3c(=O)[nH]ncc3n2)CC1", "system": "human, plasma", "setting": "oral, 40 mg once daily, day 15", "measurement": "t1/2", "value": "10.7 h"}
{"SMILES": "CC(C)c1nc(N(C)S(C)(=O)=O)nc(-c2ccc(F)cc2)c1/C=C/[C@@H](O)C[C@@H](O)CC(=O)O", "assay": "measured: phlebitis", "system": "healthy men", "setting": "oral, dose not given, 8 days, treatment-emergent, crossover trial", "measurement": "subjects with adverse event", "value": "0%"}
{"SMILES": "Cn1cc(Nc2nccc(-c3ccc4c(c3)CN(C3COC3)CC[C@H]4NC(=O)c3cn(C(C)(C)C)nn3)n2)cn1", "system": "human, whole blood", "setting": "150 mg twice daily, day 7", "how to read": "baseline: pre-dose baseline", "measurement": "class-switched memory B cell change", "value": "104%"}
{"SMILES": "O=c1[nH]c(=O)n([C@H]2C[C@H](O)[C@@H](CO)O2)cc1CCCCC[18F]", "assay": "PET", "system": "nude mice, RG2 tumour xenograft, tumour", "setting": "intravenous, dose not given", "measurement": "time to peak radioactivity", "value": "15 min"}
{"SMILES": "CCC(=O)N(CCC(c1ccc2c(c1)OCO2)c1ccccc1OC)Cc1ccccc1 (centres unmarked)", "system": "mouse, blood", "setting": "i.p., 60 mg/kg twice daily, 2 weeks", "measurement": "mean corpuscular haemoglobin", "value": "15.5 pg"}
{"note": "Some of these lines once more:"}
{"SMILES": "CCc1ccc(-c2ccc(-c3cc(F)c(F)c(F)c3)c(F)c2)cc1", "system": "rat, placenta", "setting": "1000 ng/mL in perfusate, middle dose, mixture of 21 LCMs", "measurement": "median placental accumulation", "value": "4.9 ng/g"}
{"SMILES": "COc1cc(OC)c(NC(=O)CSc2nnc(-c3ccncc3)n2-c2ccccc2)cc1Cl", "system": "aqueous buffer", "setting": "pH 7.4", "measurement": "thermodynamic solubility", "value": "< 5.36 µM"}
